Published values collected from several papers.
Every numbered part comes from another study and shows a few of its results, in no order.

Set 1 — technique: RNA Bind-n-Seq; form: RNA; medium: in vitro; concentration: 200 nM; setting: whole 134-nt RNA, ends assumed; together with: 150 mM LiCl; reference: input library; direction: higher = stronger binding; library: 7-deaza-guanosine replaces G
Target: Ras GTPase-activating protein-binding protein 1, full length (G3BP1, Homo sapiens, UniProt Q13283)
UniProt Q13283, sequence (whole entry, looked up): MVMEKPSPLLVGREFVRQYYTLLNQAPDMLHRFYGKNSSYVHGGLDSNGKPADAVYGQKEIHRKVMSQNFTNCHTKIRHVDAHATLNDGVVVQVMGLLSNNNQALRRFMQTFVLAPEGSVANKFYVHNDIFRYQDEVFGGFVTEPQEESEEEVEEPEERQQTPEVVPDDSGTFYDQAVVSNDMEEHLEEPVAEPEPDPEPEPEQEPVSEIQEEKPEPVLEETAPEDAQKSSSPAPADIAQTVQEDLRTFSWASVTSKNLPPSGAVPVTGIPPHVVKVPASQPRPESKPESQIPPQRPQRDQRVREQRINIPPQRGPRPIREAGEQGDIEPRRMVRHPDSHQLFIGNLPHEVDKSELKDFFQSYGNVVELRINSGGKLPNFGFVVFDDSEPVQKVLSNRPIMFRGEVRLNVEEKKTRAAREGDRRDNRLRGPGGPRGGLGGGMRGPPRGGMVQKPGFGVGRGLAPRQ
Constant ends, left off below: GGGAGUUCUACAGUCCGACGAUC … UGGAAUUCUCGGGUGUCAAGG
| Sequence | log2 enrichment |
| --- | --- |
| UGGGAGGUGGAUUUUGUUUAUUUUUUUAGCUCAUUUCCAGGGGUGGGAAUUUUUUUUUAAUAUGUGUCAUGAAUAUAGUUGUUUUUGAAA | -0.257 |
| GUCCUGUGCUACACAUCGUAUGUACCGAAUCGGGGUUUUUGGGGUUUUUGGGUUUUUGGAAAGUAUUAUGUUACGCCGUUCGGAUCUGCA | -0.239 |
| CUCAAGUCCUGUGCUACACAUCGUAUGUACCGAAUCGGAAGGGGAAGGAAGGGAAAGUAUUAUGUUACGCCGUUCGGAUCUGCACUUCCA | -0.134 |
| GUCCUGUGCUACACAUCGUAUGUACCGAAUCGGGGAGGGGUUUGGGGUUUUUUUGGGGAAAGUAUUAUGUUACGCCGUUCGGAUCUGCAC | -0.351 |
| AGUCCUGUGCUACACAUCGUAUGUACCGAAUCGGAAAGGAAAAAAAGGAAAAAAAGGAAAGUAUUAUGUUACGCCGUUCGGAUCUGCACU | -0.964 |
| UCCUGUGCUACACAUCGUAUGUACCGAAUCGGAAAAAAAGGAAAAAAAGGAAAAAAAGGGAAAGUAUUAUGUUACGCCGUUCGGAUCUGC | -0.592 |
| GUCCUGUGCUACACAUCGUAUGUACCGAAUCGGGGUUUGGGGUUUUUGGGGAAAGGGGAAAGUAUUAUGUUACGCCGUUCGGAUCUGCAC | -0.0894 |
| CACAGACAACACGCACCCACACAGACACAGAGGGAAGGGGUUAAAAUGGGGACAGGGUGCACAGCAGGGCGGGGUAGGACCCCAGCCCCU | -0.599 |

Set 2 — effect on: enzyme activity; action: inhibitor; concentration: 20 µM; setting: hit confirmation
Target: Replicase polyprotein 1ab, main protease (rep, Severe acute respiratory syndrome coronavirus 2, UniProt P0DTD1)
| Structure (SMILES) | inhibition [%] |
| --- | --- |
| C=CC(=O)N1CCN(C(=O)CNc2cc(I)c(Cl)cc2O)CC1 | 29.1 |
| COc1ccc2[nH]c3c(S)ncnc3c2c1 | 33.8 |
| Cc1ccnc2c1CCCC2C(N)=S (centres unmarked) | -4.7 |
| O=C(O)c1cc(N2N=C(C(F)(F)F)/C(=C/c3ccc(-c4ccccc4)o3)C2=O)ccc1Cl | 93.5 |

Set 3 — cell line: HEK-293T; effect on: pseudovirus infection; technique: FDA-approved drug library screen; organism: VSV pseudotyped with SARS-CoV-2 spike; concentration: 10 µM; time: 16 h; reference: vehicle-treated
| SMILES | GFP-positive cells [%] |
| --- | --- |
| COCCOC(=O)C1=C(C)NC(C)=C(C(=O)OC(C)C)C1c1cccc([N+](=O)[O-])c1 (centres unmarked) | 108 |
| CC(C)[N+](C)(CCOC(=O)C1c2ccccc2Oc2ccccc21)C(C)C | 95.9 |
| CC(=O)S[C@@H]1CC2=CC(=O)CC[C@]2(C)[C@H]2CC[C@@]3(C)[C@@H](CC[C@@]34CCC(=O)O4)[C@H]12 | 102 |
| c1ccc(CN(CC2=NCCN2)c2ccccc2)cc1 | 91.1 |

Mixed results
| SMILES | target | effect on | action | concentration | measurement | result |
| --- | --- | --- | --- | --- | --- | --- |
| C[C@H]1C[C@H]2[C@@H]3CCC4=CC(=O)C=C[C@]4(C)[C@@]3(F)[C@@H](O)C[C@]2(C)[C@@]1(O)C(=O)CO | Replicase polyprotein 1ab, nsp13 helicase (rep, Severe acute respiratory syndrome coronavirus 2, UniProt P0DTD1) | helicase activity | inhibitor | 20 µM | inhibition | 4.49% |

Excerpt of the above (set 1):
| Sequence | log2 enrichment |
| --- | --- |
| UCCUGUGCUACACAUCGUAUGUACCGAAUCGGAAAAAAAGGAAAAAAAGGAAAAAAAGGGAAAGUAUUAUGUUACGCCGUUCGGAUCUGC | -0.592 |
